Measurements collected from several papers.
Each numbered part is a random draw from the data of one study; scales do not carry over between parts.
Sequence of UniProt Q9Y6M4 (whole entry, looked up): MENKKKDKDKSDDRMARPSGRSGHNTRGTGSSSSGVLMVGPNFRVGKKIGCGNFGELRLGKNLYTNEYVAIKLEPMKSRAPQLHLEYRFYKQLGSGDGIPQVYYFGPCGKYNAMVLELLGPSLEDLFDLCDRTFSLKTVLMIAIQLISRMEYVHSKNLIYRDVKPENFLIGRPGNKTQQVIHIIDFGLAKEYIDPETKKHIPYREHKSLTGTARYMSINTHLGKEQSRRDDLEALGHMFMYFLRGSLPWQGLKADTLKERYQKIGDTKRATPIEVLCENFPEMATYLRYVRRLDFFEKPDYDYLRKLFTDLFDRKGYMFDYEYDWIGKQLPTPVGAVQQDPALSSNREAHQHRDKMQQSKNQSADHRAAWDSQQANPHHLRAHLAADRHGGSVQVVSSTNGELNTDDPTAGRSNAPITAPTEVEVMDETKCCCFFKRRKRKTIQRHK

Sample 1
Target: Probable WRKY transcription factor 33, C-terminal DNA-binding domain (WRKY33, Arabidopsis thaliana, UniProt Q8S8P5, residues 346-449)
Method: DNA-protein interaction ELISA
Molecule type: double-stranded DNA, one strand shown
Matrix: in vitro, bacterial lysate
Concentration: not given
Setting: whole dsDNA probe, crude lysate protein
Relative to: highest signal in screen
Direction: higher = stronger binding
Quantity: relative absorbance
Residues (chain): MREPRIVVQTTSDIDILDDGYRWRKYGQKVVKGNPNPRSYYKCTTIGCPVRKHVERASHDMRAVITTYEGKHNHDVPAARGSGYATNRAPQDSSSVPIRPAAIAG
AAAAAAGGTAGTCACATTACGAGGGTAAAA: 39.1 % of maximum
AAAAAACCTACGATGGTTCTGATCTTAAAA: 37.2 % of maximum
AAAAAACCCTAACGAATGCTTTTCGGAAAA: 31.4 % of maximum
AAAAAAGTGCGTTCACGCTTGTATCTAAAA: 28.1 % of maximum
AAAAAATGTTTTTTAGAGGTGTGCAAAAAA: 33.6 % of maximum
AAAAAAGGGCCCACTATCGACGTCAAAA: 55 % of maximum
AAAAAACAACTTGGAGGATTTACAGCAAAA: 37.7 % of maximum
AAAAAAACCGATTACCATTTTTACTGAAAA: 48.5 % of maximum

Sample 2
Target: TAR DNA-binding protein 43, full length, His tag (TARDBP, Homo sapiens, UniProt Q13148, residues 1-414)
Method: RNA Bind-n-Seq
Molecule type: RNA
Matrix: in vitro
Concentration: 20 nM
Setting: 6-mer, flanks averaged, single round
Added: 150 mM KCl
Relative to: input library
Direction: higher = stronger binding
Quantity: 6-mer enrichment (R)
ACCUUA: 0.585
CCUGGG: 1.78
UUCUAU: 0.552
ACGCUA: 0.626
AGGUUU: 0.685
CAGUAG: 0.86
CGGUCC: 0.79
AGGUCU: 0.711

Further values, each from its own experiment
SRSF5 (Homo sapiens, UniProt Q13243)  cross-linked residues (MAGI3 (Homo sapiens, UniProt Q5TCQ9); cross-linking MS; cell fractions; added: DSSO): K158 to K1312
CO[C@H]1CC[C@H](CNc2ccc(S(=O)(=O)NC(=O)c3ccc(N4CCN(CC5=C(c6ccc(Cl)cc6)CC(C)(C)CC5)CC4)cc3Oc3cnc4[nH]ccc4c3)cc2[N+](=O)[O-])CC1  remaining binding (CSNK1G3 (Homo sapiens, UniProt Q9Y6M4); cell-free assay, competition with immobilised ligand; 1 µM): 91%
MIA3 (Homo sapiens, UniProt Q5JRA6)  interaction screen (MIA2 (Homo sapiens, UniProt Q96PC5); cross-linking MS; hits only): cross-linked
EBNA1BP2 (Homo sapiens, UniProt Q99848)  interaction screen (DDX18 (Homo sapiens, UniProt Q9NVP1); cross-linking MS; hits only): cross-linked
PGM1 (Homo sapiens, UniProt P36871)  cross-linked residues (MAGT1 (Homo sapiens, UniProt Q9H0U3); cross-linking MS; cell fractions; added: DSSO): T562 to K50
